Published values gathered from unrelated publications.
Numbered parts are unrelated; each lists some results of a single study. Changes are numbered by the printed parent chain.

Study 1
Target: ABI1, truncated, D143A, DHFR fusion (Arabidopsis thaliana)
Technique: DHFR PCA, deep sequencing
Matrix: yeast
Notes: methotrexate growth selection, single substitutions
With: (+)-ABA 1.4 µM
Relative to: wild-type fitted maximum
Direction: higher = stronger binding
Starting sequence: PYL1, truncated, DHFR fusion (Arabidopsis thaliana); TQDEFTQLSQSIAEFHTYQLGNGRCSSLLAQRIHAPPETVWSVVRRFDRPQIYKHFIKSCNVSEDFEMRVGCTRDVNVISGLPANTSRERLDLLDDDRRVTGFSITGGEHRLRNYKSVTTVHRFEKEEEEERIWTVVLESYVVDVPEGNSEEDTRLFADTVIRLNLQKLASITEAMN; partner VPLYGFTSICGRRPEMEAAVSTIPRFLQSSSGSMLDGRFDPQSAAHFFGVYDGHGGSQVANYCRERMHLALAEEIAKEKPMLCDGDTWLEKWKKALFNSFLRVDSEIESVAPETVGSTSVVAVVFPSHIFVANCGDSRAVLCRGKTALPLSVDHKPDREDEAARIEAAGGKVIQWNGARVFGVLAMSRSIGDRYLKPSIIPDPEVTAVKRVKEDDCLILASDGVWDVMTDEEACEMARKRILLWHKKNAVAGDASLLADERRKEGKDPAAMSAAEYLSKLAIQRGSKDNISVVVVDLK
Variant	relative binding score [%]
T73K	26.5
R46A	39.6
E152A	49.2
E147Y	39.8
A170I	-36.5
Y141D	-1.28
C25F	-14
C60F	0.662
S80C	18.4
S87C	20.3
I33F	-5.72
K168M	31
K116C	10.2
G21F	-0.97
G108D	3.65
I133P	81.6

Study 2
Target: Ras GTPase-activating protein-binding protein 1, C-terminal RGG region (G3BP1, Homo sapiens, UniProt Q13283)
Sequence of UniProt Q13283 (whole entry, looked up): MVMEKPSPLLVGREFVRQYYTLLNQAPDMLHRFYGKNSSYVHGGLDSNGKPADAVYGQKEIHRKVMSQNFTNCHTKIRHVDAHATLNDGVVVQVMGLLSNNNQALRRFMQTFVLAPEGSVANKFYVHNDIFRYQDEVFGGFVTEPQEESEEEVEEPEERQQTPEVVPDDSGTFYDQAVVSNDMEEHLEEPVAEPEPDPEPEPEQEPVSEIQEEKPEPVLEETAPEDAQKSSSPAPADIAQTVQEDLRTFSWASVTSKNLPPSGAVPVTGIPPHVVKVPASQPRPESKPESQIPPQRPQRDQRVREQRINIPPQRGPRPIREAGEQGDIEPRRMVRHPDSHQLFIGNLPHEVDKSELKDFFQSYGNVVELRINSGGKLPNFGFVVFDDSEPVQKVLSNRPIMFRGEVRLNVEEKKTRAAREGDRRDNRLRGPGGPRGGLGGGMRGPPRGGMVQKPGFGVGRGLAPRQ
Technique: RNA Bind-n-Seq
Form: RNA
Matrix: in vitro
Concentration: 1 µM
Notes: whole 134-nt RNA, ends assumed
With: 150 mM KCl
Relative to: input library
Direction: higher = stronger binding
All sequences stand within: GGGAGUUCUACAGUCCGACGAUC … UGGAAUUCUCGGGUGUCAAGG
Sequence	log2 enrichment
GCAGGAAGUAAAAACAAAUGGAAAUGCUUCGGAUAGUGGCAGGGGUGGGGGUUGCUAAGGAAAGGGUGGGAUGGGAGUGGGUGAAGAGUU	0.599
UAACUUUAGAGGAGGGUCUGAUGGAUAUGGCAGUGGACGUGGAUUUGGGGAUGGCUAUAAUGGGUAUGGAGGAGGACCUGGAGGUGGCAA	-1.02
UAACUUUAGAGGAGGAUCUGAUGGAUAUGGCAGUGGACGUGGAUUUGGGGAUGGCUAUAAUGGGUAUGGAGGAAGACCUGGAGGUGGCAA	-0.848
CAAGUCCUGUGCUACACAUCGUAUGUACCGAAUCGGGUGGGUUUUUGGGAAAGGGAAAGUAUUAUGUUACGCCGUUCGGAUCUGCACUUC	0.289
UGGGAGGUGGAUUUUGUUUAUUUUUUUAGCUCAUUUCCGGGGGUGGGAAUUUUUUUUUAAUAUGUGUCAUGAAUAAAGUUGUUUUUGAAA	2.82
UCCUCAAGUCCUGUGCUACACAUCGUAUGUACCGAAUCGGGUGGUGGUGGGGAAAGUAUUAUGUUACGCCGUUCGGAUCUGCACUUCCAG	0.225
UUCCCACAGCCCAAAAAUCUUCUCAACAGUGUGAUUGGAAGAGCCCUCGGCAUCUCACAUGCAAAAGACAAACUAGUCUACGUGCACACA	-0.715
UGCAGAAGCAUCUUCAGUUGGAGAGCCAUUGCCUCUUGCUGUGAAAUAUUUGGGAAUCUUCAGAAACCAUGAAGAAUAACCUGCUAAAGG	-1.68
UUCCUCAGGGUAGAACUGGAUGACUCAGACGUGUUCCAUGGUGAACCUGAACCUGAGGAGCUGCCUGGAGGUAAGGGCCCUGAACUGUCC	-2.56
UCCUGUGCUACACAUCGUAUGUACCGAAUCAAACCCCCCCAAAUUUUUUUAAAUUUAAAAAAGUAUUAUGUUACGCCGUUCGGAUCUGCA	-0.413
UAACUUUAGAGGAGGAUCUGAUGGAUAUGGCAGUGGACGUGGAUCUGGGGAUGGCUAUAAUGGGUAUGGAGGAGGACCUGGAGGUGGCAA	-0.928
CAAGUCCUGUGCUACACAUCGUAUGUACCGAAUCGGGAAAAAAAGGGAGGGAGGGAAAGUAUUAUGUUACGCCGUUCGGAUCUGCACUUC	1.58
CUCAAGUCCUGUGCUACACAUCGUAUGUACCGAAUCGGGUUGGGUUGGUUGGGGAAAGUAUUAUGUUACGCCGUUCGGAUCUGCACUUCC	0.889
GCAGGAAGUAAAAACAAAUGGAGAUGCUUCGGAUAGUGGCAGGGGUGGGGGUUGCUAAGGAAAGGGUGGGAUGGGAGUGGGUAAAGAGUU	2.47

Study 3
Target: CCNF, cyclin fold, Cln2 fusion (human)
Technique: yeast growth competition, sequencing
Matrix: yeast
Notes: strong parent motif
Relative to: not given
Direction: higher = stronger binding
Starting sequence: CDC25A docking peptide (human); PPHRRRLLFACSP; partner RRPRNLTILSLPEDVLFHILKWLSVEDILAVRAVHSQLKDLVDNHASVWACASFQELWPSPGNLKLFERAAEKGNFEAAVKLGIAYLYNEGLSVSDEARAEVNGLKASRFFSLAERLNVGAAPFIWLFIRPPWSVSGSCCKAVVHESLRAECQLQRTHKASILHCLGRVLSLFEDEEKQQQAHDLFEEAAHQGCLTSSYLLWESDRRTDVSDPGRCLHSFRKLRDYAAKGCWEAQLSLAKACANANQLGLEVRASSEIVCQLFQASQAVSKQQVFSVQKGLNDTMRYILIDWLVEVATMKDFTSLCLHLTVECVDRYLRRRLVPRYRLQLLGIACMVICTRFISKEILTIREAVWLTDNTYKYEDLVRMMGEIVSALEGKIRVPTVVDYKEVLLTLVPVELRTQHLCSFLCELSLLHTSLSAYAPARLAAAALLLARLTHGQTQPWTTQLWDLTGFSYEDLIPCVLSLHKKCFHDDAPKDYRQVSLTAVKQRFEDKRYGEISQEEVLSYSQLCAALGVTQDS
Variant	normalised enrichment score
L7V	1.62
P2I	6.63
P13M	7.62
P2D	4.87
F9H	1.43
A10Q	8.21
L7Q	0.887
R6Q	6.61
S12P	7.79
R6L	4.38
A10P	8.14
L8C	6.84
P13K	6.11
F9M	3.97
R6A	4.95
R4P	6.29
R6F	2.54
L7D	0.573
R4A	6.73
R4V	6.42
L8E	6.97
R6V	4.76
P2K	7.13
R4I	4.21
F9I	2.46

Study 4
Target: CREB3L2, bZIP domain (human)
Technique: DHFR protein complementation
Matrix: yeast
Notes: single substitutions, most at no-binding floor
Relative to: wild-type JUN-FOS pair
Direction: higher = stronger binding
Starting sequence: JUN, bZIP domain (human); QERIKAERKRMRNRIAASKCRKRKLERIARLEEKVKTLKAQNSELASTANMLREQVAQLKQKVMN; partner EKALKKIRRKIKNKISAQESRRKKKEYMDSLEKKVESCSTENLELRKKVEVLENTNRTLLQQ
Variant	binding fitness [natural log]
E32H	-1.57
R30E	-1.25
L38T	-1.52
T48Y	-1.39
R53T	-1.47
S47V	-1.22
S43C	-1.53
L31F	-1.56
E44D	-1.5
L31T	-1.51
S43W	-1.43
M51G	-1.49
A57L	-1.54
A40T	-1.48
N42I	-1.48
A29N	-1.5
T37D	-1.41
R53N	-1.36

Study 5
Target: RING finger protein unkempt homolog, zinc fingers 1-6, GST-SBP tag (UNK, Homo sapiens, UniProt Q9C0B0, residues 30-357)
Technique: RNA Bind-n-Seq
Form: RNA
Matrix: in vitro
Concentration: not given
Notes: RNA with constant flanks, ends assumed
Relative to: input RNA pool
Direction: higher = stronger binding
All sequences stand within: GGGAGUUCUACAGUCCGACGAUC … CAACAGAGGAUUGAGCAUCA
Target sequence (chain): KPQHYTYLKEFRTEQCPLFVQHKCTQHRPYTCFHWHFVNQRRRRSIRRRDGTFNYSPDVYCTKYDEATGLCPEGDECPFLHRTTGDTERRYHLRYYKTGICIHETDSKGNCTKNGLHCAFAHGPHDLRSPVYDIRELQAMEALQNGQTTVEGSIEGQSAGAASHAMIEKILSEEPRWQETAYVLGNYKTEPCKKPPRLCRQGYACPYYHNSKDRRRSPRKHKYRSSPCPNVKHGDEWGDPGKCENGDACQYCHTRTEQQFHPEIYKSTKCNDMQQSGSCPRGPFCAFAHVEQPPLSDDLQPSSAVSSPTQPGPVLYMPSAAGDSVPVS
Sequence	bound/input enrichment
CUUUGUCUAGCAAAUAAAAGAUGUUAAUAUAUUCCUGUUAUUGGCAUGUGCACGACUGUUAUCCGAAGCCACUUUAUCAUUUUCCUGCUUUAAAUAGAAAUGUCUAUUUAUGAAUUCUGC	1.02 ratio
UCAAAAUUCUUCUCUGCCUACAAAAGUCAUUUCCGCAAUGUCCAUAGUGAAGACUUUGAAAACCGGAUUCUCCUUAAUUGCCCCUACUGUACCUUCAAUGCAGACAAAAAGACUUUGGAA	0.0678 ratio
UAAAUUAGGGCUGCCGUUUUCUGUUUCUCCCUGGGCUGCGGAAAGCCAGAAGAUUUUAUCCCGCUUAUACAAGGCUGCUGGUGUUCCCUCUUUUUUUCCACGAGGGUGUUUUUGGCUGCA	0.724 ratio
UUACUUUUAACUCCAUGGGUUAAAUUCCUGUGGGAGUCUUACAGGCAGUGUUUGGACCUUCUCCGAAACAAUUCUAGAGUAGAGCGCCUGUACCAUGAUAUUGCCCAGCAAGCUUUCAAA	0.33 ratio
GCAGAUUACAAUGGCAGAUUGGCGGCAGAAAUAGAUGAUAGAAAGCAACUCACUCGAAUGUCCGCAGAUUUUCUUCGUUGUCAAAAGGAAGCCCUUGCAGAGAAAGAGCAUAAAUUGGAA	0.744 ratio
UGUAUUCGAUAGAUCUCUACAACUAUGCCCCUUAUCGUAGGGAAUACUCAUAACUUUGUGUCCGCACGAUGGAGGAUACAAUGCUUUGCAGCAUAAGAGAGAAAAUAGUUCUACUAGCCA	1.06 ratio

A few entries again (study 4):
Variant	binding fitness [natural log]
T48Y	-1.39
R53T	-1.47
S47V	-1.22
S43C	-1.53
L31F	-1.56
E44D	-1.5
L31T	-1.51
S43W	-1.43
M51G	-1.49
A57L	-1.54
A40T	-1.48
